Results gathered from unrelated publications.
Every numbered part comes from another study and shows a few of its results, in no order.

Sample 1
Target: RNA binding protein fox-1 homolog 2, RRM domain, GST-SBP tag (RBFOX2, Homo sapiens, UniProt O43251-10, residues 100-194)
Technique: RNA Bind-n-Seq
Molecule type: RNA
Matrix: in vitro
Concentration: 365 nM
Notes: natural RNA segment, single round, ends assumed
Relative to: no-protein control
Reading: higher = stronger binding
Target sequence (chain): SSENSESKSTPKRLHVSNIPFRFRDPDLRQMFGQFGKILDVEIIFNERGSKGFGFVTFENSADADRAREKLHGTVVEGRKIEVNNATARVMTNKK
| Strand | RBNS enrichment (R) |
| --- | --- |
| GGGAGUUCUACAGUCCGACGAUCGGUUGCCUGUGGUCUCUGUCAUCCUCGUUUCUCUUCUGAAAUGAAUUUCCACCUCUGCCUUUAAGGCAUUUUUGUCACUGAAGCUGCUGUUCCCAAGAGAUCGGCAACCUUGGAAUUCUCGGGUGCCAA | 0.332 |
| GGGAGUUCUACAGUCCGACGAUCAGCAGCUGUGGUCAUUAAACCAUUAGUUUACCCCUCUAGAACUGGGGUCUGCAAACUCCCACCUGCAGCCAAAUCUGGCCCACCUCCUUUUUAAUGUAAGGGCUGUGAGAUGGAAUUCUCGGGUGCCAA | 0.35 |
| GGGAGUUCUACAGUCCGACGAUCAGAUUUUCUUCUGAGAAGAAUUUGUGUUUAAUUUUUGAUACCAACACUGAACAUUCAUCAGGGAACUUUCCUCAAGUCUAACUGCUGUGUUUGUGAGAAGAGCAGAAUCAUGGAAUUCUCGGGUGCCAA | 0.437 |
| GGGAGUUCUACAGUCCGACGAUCGCUAAGUCUAAAUUGUCUUUUCAUUUCAUGAUGCAUUUUUUCUCUUUUGUCAGGAUAACAUCAUAUAGCAUCUUGUUUGUUUUUCCUAAUCUCUAUGUACAUAUCUAUCUUGGAAUUCUCGGGUGCCAA | 1.66 |
| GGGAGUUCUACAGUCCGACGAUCCCAUUAUCUUAUUUUCUUUGAUACUUUAUUUAAUUAGAUGUUUAUAAAGAAAUGGGUUUAUUUUUCCAGCAUAAACCUCAGAAUUUAAGGAAAGAAAAUGAUGUCUGUUGUGGAAUUCUCGGGUGCCAA | 0.618 |
| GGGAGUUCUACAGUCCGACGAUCGCCAUCUUCUGUUACCAUAUGGUGUUGAAUGCAAGUUUAAUUACCAUGGAGAUUGUUUUACAAACUUUUGAUGUGGUCAAGUUCAGUUUUAGAAAAGGGAGUCUGUUCCAUGGAAUUCUCGGGUGCCAA | 0.308 |
| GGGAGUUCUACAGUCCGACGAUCCAUCCAGAGUUACUGUGUGACUUGGUCCUGCCAUCGUUAGCUUUGAAAUCACAGGCAUUGGGCUCUGUUUUGACACCAUUCAUUGGACUGCGGGACAGUCAUUCUUUACGUGGAAUUCUCGGGUGCCAA | 0.536 |
| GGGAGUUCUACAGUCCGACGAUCAUGCUACGUGACAGUUUGAAACCUUCACAGUUAUCCUCUGGGGGUAAAUCAAUUCUUCAACCCUUGGGUGUGUGAGUUUGAGGCAGGGUCAUUUGUGUGAUGUGUUUGGCUGGAAUUCUCGGGUGCCAA | 0.348 |

Sample 2
Target: Ras GTPase-activating protein-binding protein 1, full length (G3BP1, Homo sapiens, UniProt Q13283)
Sequence of UniProt Q13283 (whole entry, looked up): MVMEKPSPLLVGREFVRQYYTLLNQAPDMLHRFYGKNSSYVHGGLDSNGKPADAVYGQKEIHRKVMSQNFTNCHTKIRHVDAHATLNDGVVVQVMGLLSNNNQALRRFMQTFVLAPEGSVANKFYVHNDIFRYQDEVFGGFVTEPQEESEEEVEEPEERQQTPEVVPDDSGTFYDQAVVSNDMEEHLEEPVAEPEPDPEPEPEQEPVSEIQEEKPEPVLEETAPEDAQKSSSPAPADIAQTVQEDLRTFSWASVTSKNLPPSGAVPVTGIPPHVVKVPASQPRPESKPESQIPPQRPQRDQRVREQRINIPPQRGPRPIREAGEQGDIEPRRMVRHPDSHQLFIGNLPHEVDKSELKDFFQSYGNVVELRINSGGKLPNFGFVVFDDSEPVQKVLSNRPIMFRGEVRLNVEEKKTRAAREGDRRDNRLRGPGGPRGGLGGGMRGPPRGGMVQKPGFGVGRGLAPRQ
Technique: RNA Bind-n-Seq
Molecule type: RNA
Matrix: in vitro
Concentration: 200 nM
Notes: whole 134-nt RNA, ends assumed
Added: 150 mM LiCl
Relative to: input library
Reading: higher = stronger binding
Library: 7-deaza-guanosine replaces G
| Strand | log2 enrichment |
| --- | --- |
| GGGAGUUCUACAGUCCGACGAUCGCAGGAAGUAAAAACAAAUGGAAAUGCUUCGGAUAGUGCCAGGGGUGGGGGUUGCUAAGGAAAGGGUGGGAUGGGAGUGGGUAAAGAGUUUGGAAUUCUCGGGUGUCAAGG | 0.432 |
| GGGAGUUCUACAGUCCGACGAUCUGGCCCUGGUGGCAUGCGGGGAGGAAGAGGUGGCCUCAUGGAUCGUGGUGGACCCGGUGGAAUGUUCAGAGGUGGCCGUGGUGGAGACAGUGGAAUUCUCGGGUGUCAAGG | 0.988 |
| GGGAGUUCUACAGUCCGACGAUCUAACUUUAGAGGAGGAUCUGAUGGAUAUGGCAGUGGACGUGGAUUUGGGGAUGGCUAUAACGGGUAUGGAGGAGGACCUGGAGGUGGCAAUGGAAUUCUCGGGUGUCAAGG | -0.359 |
| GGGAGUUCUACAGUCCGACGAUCAGUCCUGUGCUACACAUCGUAUGUACCGAAUCGGGAAAAAGGAAAAAGGGAAAAAGGAAAGUAUUAUGUUACGCCGUUCGGAUCUGCACUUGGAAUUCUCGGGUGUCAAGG | -1.02 |
| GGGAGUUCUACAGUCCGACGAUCACCAUGCAGGUGGGCAUCUUUGGGAAGUGGGGCAAGGGGGGGAUAGGGAGGGGGGUAACACUUUGGGAACAGGUGCUCCCAGGUCGUUUCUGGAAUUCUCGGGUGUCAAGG | 0.0449 |
| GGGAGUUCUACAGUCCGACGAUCUGGCCCUGGUGGCAUGCGGGGAGGAAGAGGUGGCCUCAUGGAUCGUGGUGGUCCCGGUGGAAUGUUCAGAGGUGGCCGUGGUGGAGAAAGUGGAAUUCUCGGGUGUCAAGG | 0.453 |
| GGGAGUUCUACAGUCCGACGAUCACCAUGCAGGUGGCCAUCUUUGGGAAGUGGGGCAAGGGGGGGAUAGGGAGGGGGGUAACACUUUGGGAACAGGUGGUCCCAGGUCGUUUCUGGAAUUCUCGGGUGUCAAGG | -0.458 |
| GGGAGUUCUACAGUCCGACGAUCACCAUGCAGGUGGGCAUCUUUGGGAAGUGGGGCAAGGGGGGGAUAGGGAGGGGAAAAACACUUUGGGAACAGGUGGUCCCAGGUCGUUUCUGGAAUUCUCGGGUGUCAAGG | 0.317 |

Sample 3
Target: RING finger protein unkempt homolog, zinc fingers 1-6, GST-SBP tag (UNK, Homo sapiens, UniProt Q9C0B0, residues 30-357)
Technique: RNA Bind-n-Seq
Molecule type: RNA
Matrix: in vitro
Concentration: not given
Notes: RNA with constant flanks, human and mouse sites, ends assumed
Relative to: input RNA pool
Reading: higher = stronger binding
Target sequence (chain): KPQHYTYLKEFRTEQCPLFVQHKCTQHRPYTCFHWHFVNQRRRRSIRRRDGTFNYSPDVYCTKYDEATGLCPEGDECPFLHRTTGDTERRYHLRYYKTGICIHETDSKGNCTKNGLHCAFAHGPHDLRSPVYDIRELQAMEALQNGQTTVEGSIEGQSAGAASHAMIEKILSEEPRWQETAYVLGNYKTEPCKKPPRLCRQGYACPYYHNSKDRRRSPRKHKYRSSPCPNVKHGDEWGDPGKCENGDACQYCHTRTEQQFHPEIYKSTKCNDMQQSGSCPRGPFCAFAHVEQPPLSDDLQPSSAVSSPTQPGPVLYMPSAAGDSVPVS
| Strand | bound/input enrichment [ratio] |
| --- | --- |
| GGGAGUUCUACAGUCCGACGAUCGCAGCUGCAGUUGCACUUUCCUCCCUGAUUCAUGCUUUGGAUGACUUAGACAUGGUGGCCAUAGUUCGAUAUGCUUAUGACAAAAGAGCUAAUCCUCAAGUCGGCGUGGCUUUUCCUCAUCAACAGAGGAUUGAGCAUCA | 0.448 |
| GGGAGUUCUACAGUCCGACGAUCUGGUUUAAAGCCCUGAGGAUAGUAGUCACUUUAUUGGCCACUUUUUCAUUUAUAAUCACUUUAGUAGUUAAAAGUAGUUUUCCAGAAAAAGGACAUAAGAGACCUGGUCAAGUAUAAAAACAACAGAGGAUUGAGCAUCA | 0.655 |
| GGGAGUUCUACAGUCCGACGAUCAAAGGACAUUUAUUUGUUCUUUGUCAAGCUGUAAAUACUCUACUAAGUUUGGAAGAGUCUUCAGAACUUCUUCAUCUGGUUCCUGUGGGACGAGUGAAGCACUUAGUGUUGACCUUUCCACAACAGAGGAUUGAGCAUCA | 0.0586 |
| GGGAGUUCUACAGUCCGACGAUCAUCAUAGAGAACCAGCAGCAGCUAAACAGCCCUCUGCUUGCUUCCAAAGGGCUUAUAAUUGAGCACAGAUGGUCCUAGUGGAGAUGGGGAAUGUGUCCCUGCUGACUCCUCAUACCCCAGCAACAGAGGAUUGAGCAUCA | 0.184 |
| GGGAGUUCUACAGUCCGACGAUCUAAUAAAAACUGGAGAAAUAGGAAUUUGUGAACUCCUAAAAUUGUAGCAACUUUGAAAGGUUAGUGUUUUAUUUACCUGACAAAUGGAAGUUAUAGAAGUCUAAUAAUGUUAAGCACCAGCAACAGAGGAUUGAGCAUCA | 1.67 |
| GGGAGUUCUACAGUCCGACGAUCAUUAAGAAACAAAUCAUAUUGUGUAUGGAAGAAUUAGAACACUCUCCAGAUACAAGCUUUGAAAGAGAUGUGGUGUGUGAAGAUGAAAGUGCUUUUUGUUUAUCACUGGAGAACAUUGCACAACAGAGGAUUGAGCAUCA | 0.24 |
| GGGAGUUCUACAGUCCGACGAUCCGAGCGUCGGUUGCCCGACAUGUGAGUGCCAUUCCUUGGGGCAUUUCUGCCACUGCAGCCCUCAGGCCUGCUGCAUGUGGAAGAACGAGCUUGACAAAUUUAUUGUGUUCUGGUUCCAGUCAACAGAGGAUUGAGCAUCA | 0.0984 |
| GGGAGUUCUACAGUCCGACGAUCAUUAACGCUGUUGUAUGAACAAUAUUUGGUGACAUGUUGUCUUUUUGUCCUGUAGAUUGUCAUAUCUGUUAUGUAGUUAUCCUUUUGGCAAGUCCUUUGAUUUUUUUUUCCUCUAGAAAACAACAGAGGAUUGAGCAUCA | 1.01 |

Sample 4
Target: Sal-like protein 4, full length isoform A (SALL4, Homo sapiens, UniProt Q9UJQ4, residues 1-1053)
Sequence of UniProt Q9UJQ4 (whole entry, looked up): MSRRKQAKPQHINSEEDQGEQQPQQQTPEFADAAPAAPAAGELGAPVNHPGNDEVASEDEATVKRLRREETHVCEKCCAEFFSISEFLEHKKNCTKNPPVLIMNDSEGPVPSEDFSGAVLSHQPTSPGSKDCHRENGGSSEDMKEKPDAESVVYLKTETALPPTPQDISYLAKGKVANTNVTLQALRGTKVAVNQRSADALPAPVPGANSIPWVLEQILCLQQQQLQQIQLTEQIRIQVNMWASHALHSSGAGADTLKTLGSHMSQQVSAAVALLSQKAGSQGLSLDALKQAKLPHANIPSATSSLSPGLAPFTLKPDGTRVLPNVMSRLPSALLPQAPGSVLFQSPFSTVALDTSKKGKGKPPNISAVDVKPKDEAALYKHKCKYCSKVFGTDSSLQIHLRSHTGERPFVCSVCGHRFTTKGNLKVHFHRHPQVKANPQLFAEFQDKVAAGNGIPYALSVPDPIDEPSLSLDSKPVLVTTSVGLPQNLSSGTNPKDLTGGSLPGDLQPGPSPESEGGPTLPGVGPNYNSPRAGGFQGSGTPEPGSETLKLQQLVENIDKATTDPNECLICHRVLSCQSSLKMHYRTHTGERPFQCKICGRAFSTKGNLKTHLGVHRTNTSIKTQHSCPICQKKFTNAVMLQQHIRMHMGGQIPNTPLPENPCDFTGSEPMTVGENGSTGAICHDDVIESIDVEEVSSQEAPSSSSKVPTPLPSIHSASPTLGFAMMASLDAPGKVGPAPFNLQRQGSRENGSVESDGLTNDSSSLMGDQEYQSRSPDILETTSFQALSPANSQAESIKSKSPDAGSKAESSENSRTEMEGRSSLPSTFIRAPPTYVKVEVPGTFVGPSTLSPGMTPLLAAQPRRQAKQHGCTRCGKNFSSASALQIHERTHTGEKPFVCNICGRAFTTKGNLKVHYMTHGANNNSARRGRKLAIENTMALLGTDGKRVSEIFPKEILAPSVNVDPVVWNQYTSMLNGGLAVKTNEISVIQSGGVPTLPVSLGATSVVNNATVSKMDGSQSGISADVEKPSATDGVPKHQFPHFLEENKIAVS
Technique: universal PBM
Molecule type: double-stranded DNA, one strand shown
Matrix: in vitro
Concentration: 600 nM
Notes: 8-mer, flanks averaged, mean of replicates
Reading: higher = stronger binding
| Strand | E-score |
| --- | --- |
| CCTCTACC | -0.18 |
| CACAATTA | 0.239 |
| CTGGTCTC | -0.257 |
| CACGGATG | -0.041 |
| TTAGCAAA | 0.144 |
| CTGTGGGA | -0.276 |
| GCGGGACC | -0.383 |
| CGGTGAGA | -0.168 |
| CCTAAAGA | -0.00304 |
| ATCTTTAG | 0.078 |
| TCTGCGCA | -0.22 |
| TCAGTCAA | 0.0821 |
| AGGGATCA | -0.0402 |
| AGAGTAGA | 0.157 |
| AATTCCTC | 0.0558 |
| CGGCTCAA | -0.0924 |
| CCCCGCCC | 0.0199 |
| CAGGGTCG | -0.324 |
| ACCAAAGC | -0.126 |
| TATGTGGA | 0.258 |
| CGGGACGC | -0.28 |
| TACAACCA | 0.16 |
| ACGTGACA | -0.0125 |
| TGGGGCAA | -0.12 |

Excerpt of the above (sample 3):
| Strand | bound/input enrichment [ratio] |
| --- | --- |
| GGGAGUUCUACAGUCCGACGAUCUAAUAAAAACUGGAGAAAUAGGAAUUUGUGAACUCCUAAAAUUGUAGCAACUUUGAAAGGUUAGUGUUUUAUUUACCUGACAAAUGGAAGUUAUAGAAGUCUAAUAAUGUUAAGCACCAGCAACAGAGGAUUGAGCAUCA | 1.67 |
| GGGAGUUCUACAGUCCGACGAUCCGAGCGUCGGUUGCCCGACAUGUGAGUGCCAUUCCUUGGGGCAUUUCUGCCACUGCAGCCCUCAGGCCUGCUGCAUGUGGAAGAACGAGCUUGACAAAUUUAUUGUGUUCUGGUUCCAGUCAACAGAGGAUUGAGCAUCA | 0.0984 |
| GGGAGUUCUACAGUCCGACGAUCAUUAAGAAACAAAUCAUAUUGUGUAUGGAAGAAUUAGAACACUCUCCAGAUACAAGCUUUGAAAGAGAUGUGGUGUGUGAAGAUGAAAGUGCUUUUUGUUUAUCACUGGAGAACAUUGCACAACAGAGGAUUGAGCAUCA | 0.24 |
| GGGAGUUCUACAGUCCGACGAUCAAAGGACAUUUAUUUGUUCUUUGUCAAGCUGUAAAUACUCUACUAAGUUUGGAAGAGUCUUCAGAACUUCUUCAUCUGGUUCCUGUGGGACGAGUGAAGCACUUAGUGUUGACCUUUCCACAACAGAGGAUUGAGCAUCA | 0.0586 |
| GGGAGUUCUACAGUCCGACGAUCUGGUUUAAAGCCCUGAGGAUAGUAGUCACUUUAUUGGCCACUUUUUCAUUUAUAAUCACUUUAGUAGUUAAAAGUAGUUUUCCAGAAAAAGGACAUAAGAGACCUGGUCAAGUAUAAAAACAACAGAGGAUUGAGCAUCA | 0.655 |
| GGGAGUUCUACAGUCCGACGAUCAUUAACGCUGUUGUAUGAACAAUAUUUGGUGACAUGUUGUCUUUUUGUCCUGUAGAUUGUCAUAUCUGUUAUGUAGUUAUCCUUUUGGCAAGUCCUUUGAUUUUUUUUUCCUCUAGAAAACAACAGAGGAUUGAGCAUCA | 1.01 |
| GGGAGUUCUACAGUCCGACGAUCGCAGCUGCAGUUGCACUUUCCUCCCUGAUUCAUGCUUUGGAUGACUUAGACAUGGUGGCCAUAGUUCGAUAUGCUUAUGACAAAAGAGCUAAUCCUCAAGUCGGCGUGGCUUUUCCUCAUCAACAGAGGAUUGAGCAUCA | 0.448 |
| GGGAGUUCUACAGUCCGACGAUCAUCAUAGAGAACCAGCAGCAGCUAAACAGCCCUCUGCUUGCUUCCAAAGGGCUUAUAAUUGAGCACAGAUGGUCCUAGUGGAGAUGGGGAAUGUGUCCCUGCUGACUCCUCAUACCCCAGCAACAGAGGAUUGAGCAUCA | 0.184 |
